Measurements pooled from the literature.
Compare with care: the assays were run in different laboratories. “And” joins repeats or separate records; there may be more than shown. Numbers after ± are the reported error.

Structure (SMILES)	species	matrix	route	dose	time	plasma concentration
COc1cc(N2CCN(C(=O)C3CCCN3)CC2)ccc1Nc1ncc(Cl)c(Nc2ccccc2P(C)(C)=O)n1 (centres unmarked)	mice	plasma	oral	10 mg/kg	10 h	0.117 µg/mL
C=CC(=O)N1CCCC(n2c(=O)c3ncccc3n(Cc3ccc(Oc4ccccc4)cc3)c2=O)C1 (centres unmarked)	male BALB/c mice	plasma	intraperitoneal	200 mg/kg	2 h	26.6 µg/mL and 38.6 µg/mL
O=C1CCC(N2Cc3cc(C(=O)O)c(F)cc3C2=O)C(=O)N1 (centres unmarked)	CD-1 mice	–	intravenous	1 mg/kg	24 h	not detected
Nc1nonc1-c1nnc2c(n1)-c1ccccc1C2=O	ICR mice	plasma	intraperitoneal	30 mg/kg	0.5 h	7.12 ± 1.17 µM
Cc1ncsc1-c1ccc(CNC(=O)[C@@H]2C[C@@H](O)CN2C(=O)[C@@H](NC(=O)COCC(C)(COCCOCCOCCNC(=O)C[C@@H]2N=C(c3ccc(Cl)cc3)c3c(sc(C)c3C)-n3c(C)nnc32)COCCOCCOCCNC(=O)C[C@@H]2N=C(c3ccc(Cl)cc3)c3c(sc(C)c3C)-n3c(C)nnc32)C(C)(C)C)cc1	male C57BL/6 mice	plasma	subcutaneous	5 mg/kg	5 min	0.478 µg/mL and 0.235 µg/mL and 0.245 µg/mL
CCC(=O)N(C)c1ccc(Cl)c(Cl)c1	female C57BL/6 mice	–	subcutaneous	2 mg/kg	0.5 h	0.285 µg/mL
[2H]C([2H])([2H])C1(C([2H])([2H])[2H])NC(=O)N(c2ccc(F)c(C(C)(F)F)c2)C1=O	male Swiss outbred mice	plasma	oral	100 mg/kg	24 h	40.2 ± 3.34 µg/mL
O=C1C2CC3CC1CC(C(=O)N1CCN(c4ccc([N+](=O)[O-])c5ncccc45)CC1)(C3)C2	male ICR mice	plasma	intravenous	1 mg/kg	0.0833 h	0.497 µg/mL

Excerpt of the above:
Structure (SMILES)	species	matrix	route	dose	time	plasma concentration
C=CC(=O)N1CCCC(n2c(=O)c3ncccc3n(Cc3ccc(Oc4ccccc4)cc3)c2=O)C1 (centres unmarked)	male BALB/c mice	plasma	intraperitoneal	200 mg/kg	2 h	26.6 µg/mL and 38.6 µg/mL
